Measurements from different studies.
Numbered parts are unrelated; each lists some results of a single study.

Series 1 — method: protein-binding microarray; form: double-stranded DNA, one strand shown; medium: in vitro; concentration: not given; direction: higher = stronger binding
Target: Protein C-ets-1 (ETS1, Homo sapiens, UniProt P14921, residues 1-441, full length assumed)
Setting: k-mer, scored over probes, only values ≥0.25
Construct (chain): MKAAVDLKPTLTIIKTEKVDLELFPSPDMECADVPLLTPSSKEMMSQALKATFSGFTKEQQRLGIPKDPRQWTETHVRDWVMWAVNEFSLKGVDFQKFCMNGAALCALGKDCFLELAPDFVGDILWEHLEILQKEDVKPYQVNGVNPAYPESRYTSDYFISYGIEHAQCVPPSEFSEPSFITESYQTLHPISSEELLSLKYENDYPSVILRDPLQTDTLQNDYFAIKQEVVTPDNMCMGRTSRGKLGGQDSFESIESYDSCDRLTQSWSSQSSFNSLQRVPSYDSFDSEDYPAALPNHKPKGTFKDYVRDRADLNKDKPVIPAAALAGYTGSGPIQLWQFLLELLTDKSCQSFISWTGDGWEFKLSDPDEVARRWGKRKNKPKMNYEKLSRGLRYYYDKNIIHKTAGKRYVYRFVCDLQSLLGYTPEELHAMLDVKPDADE
Sequence	E-score
CGGGAAGC	0.402
CGGTATCC	0.364
AGAGTTCC	0.303
CCGCCCCC	0.303
ACCAGGAA	0.344

Series 2 — method: protein-binding microarray; form: double-stranded DNA, one strand shown; medium: in vitro; concentration: 940 nM top; setting: 60-bp whole probe; with: salmon DNA 0.4 mg/ml; baseline: random background probes; direction: higher = stronger binding; all sequences stand within: GCCTAGCAC … GTCTTGATTCGCTTGACGCTGCTG
Target: Interferon regulatory factor 5, full length, phosphomimetic (IRF5, Homo sapiens, UniProt Q13568-2, residues 1-514, S451D/S453D/S456D/S462D)
Sequence	fitted relative affinity [z-score]
GACAATTTCAGACTGGAGACGTGCTAG	-0.45
CTTCTTTTTTTTCTTTAAAAGTGCTAG	1.61
TTAGGTCTCCTTCCCCTTTAGTGCTAG	0.614
GACGGTATCGCTTTCGGGACGTGCTAG	5.58
GACGGACTAGGTTTCGGGACGTGCTAG	3.28
GACGGACTGGGTTTCGTGACGTGCTAG	0.695
GACGGACCGCTTCTCCTGACGTGCTAG	-0.521
GACGGTATCGGGTTTCAGGACGTGCTA	4.66

Series 3 — method: RNA Bind-n-Seq; form: RNA; medium: in vitro; concentration: 200 nM; setting: whole 134-nt RNA, ends assumed; with: 150 mM KCl; baseline: input library; direction: higher = stronger binding
Target: Fragile X messenger ribonucleoprotein 1, C-terminal low-complexity region (Fmr1, Mus musculus, UniProt P35922)
All sequences stand within: GGGAGUUCUACAGUCCGACGAUC … UGGAAUUCUCGGGUGUCAAGG
Sequence	log2 enrichment
CCUCAAGUCCUGUGCUACACAUCGUAUGUACCGAAUCGGGUGGGGUGGGUGGGAAAGUAUUAUGUUACGCCGUUCGGAUCUGCACUUCCA	1.38
CCUGUGCUACACAUCGUAUGUACCGAAUCGGGGAAAAAGGGGUUUUUUUGGGGAAAGGGGAAAGUAUUAUGUUACGCCGUUCGGAUCUGC	0.369
CCUCAAGUCCUGUGCUACACAUCGUAUGUACCGAAUCGGAGGUUUUUGGAGGAAAGUAUUAUGUUACGCCGUUCGGAUCUGCACUUCCAG	0.248
UGGCCCUGGUGGCAUGCGGGGAGGAAGAGGUGGCCUCAUGGAGCGUGGUGGUCCCGGUGGAAUGUUCAGAGGUGGCCGUGGUGGAGACAG	0.237
CCUCAAGUCCUGUGCUACACAUCGUAUGUACCGAAUCGGGAGGGUGGGAGGGAAAGUAUUAUGUUACGCCGUUCGGAUCUGCACUUCCAG	1.62

Mixed results
Molecule	target	assay	test system	conditions	scale	endpoint	value
PhoQ, residues 284 288 289 292 302 303 SACGEM	PhoP, residues 12 14 15 18 19 SQCLL (Escherichia coli, UniProt P23836)	Sort-seq, measured: YFP reporter	E. coli	PhoQ-PhoP variant library, with: 10 µM Mg2+	baseline: high Mg2+ state, higher = stronger signaling	fold induction	13.2

For quick reference, copied from above (series 1):
Sequence	E-score
ACCAGGAA	0.344
